Assay results from different studies.
Compare with care: the assays were run in different laboratories. ± marks the error that the study gave.
B1: NUP62 301-522 (Homo sapiens, UniProt P37198); sequence looked up; chain GIPSNTAAAVTAPPGPGAAAGAAASSAMTYAQLESLINKWSLELEDQERHFLQQATQVNAWDRTLIENGEKITSLHREVEKVKLDQKRLDQELDFILSQQKELEDLLSPLEELVKEQSGTIYLQHADEEREKTYKLAENIDAQLKRMAQDLKDIIEHLNTSGAPADTSDPLQQICKILNAHMDSLQWIDQNSALLQRKVEEVTKVCEGRRKEQERSFRITFD
B2: Pot1 L261S (Mus musculus, UniProt Q91WC1); sequence looked up; chain MSLVSTAPYTYTPLNLLKEGTIANVYGVVKFFKPPYVSKGTDYCSVVTIVDQTNVKLTCMLFSGNYEALPIIYKVGDIVRFHRLKIQVYKNELQGINCSGFASLTFEGTVGMPVTARTSSKVFSFTPQDQKMVEALRVWASKHISASSTLVQLCDAQPMQYYDLTCQLLGKAQVDSTAFLLKVWDGTQTVLPSWRVSTQDLTFEGDLSHIERLQSLVVDILVYDNHVQVARSIEVGCFLRLYSLHTKLQPGNSETSSSESSRLEFHLHGGTSYGRGIRVLPDTSPCVDQLKKALEGANLPVTETSTGICQSENGDSSALSNSGSGAVSPYEEERCQQVSATILTNHQHLEKTPLCAILTQKAPQQYRVRAKLRSYLPRRLSQSVKLLCPKCHSVQEVPHGDSLDKILQDAATEAPDIKLKATSLYYSKVWTTEDQGGRQVAVHFVKNNGILPASSECLILIEGGRLCEVSKLSSKFHSVMPVRSGPESLELLTLSAPFLIQGKVHHYGCKQCSSLKPIQNLNSRFHKGPWTPSSVAEALGVVPLQYVFVMVFTLDDGTGVLEAYLKDSEHFFKIPASEVLTDDDLQRSLETIMDMICPPGIKVDAYPWLECLLKSYNVTIGTERRICYQIFDTTVAENVV
B3: MPK12 (Arabidopsis thaliana, UniProt Q8GYQ5); sequence looked up; chain MSGESSSGSTEHCIKVVPTHGGRYVQYNVYGQLFEVSRKYVPPIRPIGRGACGIVCAAVNSVTGEKVAIKKIGNAFDNIIDAKRTLREIKLLRHMDHENVITIKDIVRPPQRDIFNDVYIVYELMDTDLQRILRSNQTLTSDQCRFLVYQLLRGLKYVHSANILHRDLRPSNVLLNSKNELKIGDFGLARTTSDTDFMTEYVVTRWYRAPELLLNCSEYTAAIDIWSVGCILGEIMTGQPLFPGKDYVHQLRLITELVGSPDNSSLGFLRSDNARRYVRQLPRYPKQQFAARFPKMPTTAIDLLERMLVFDPNRRISVDEALGHAYLSPHHDVAKEPVCSTPFSFDFEHPSCTEEHIKELIYKESVKFNPDH
Sequence of UniProt P09119 (whole entry, looked up): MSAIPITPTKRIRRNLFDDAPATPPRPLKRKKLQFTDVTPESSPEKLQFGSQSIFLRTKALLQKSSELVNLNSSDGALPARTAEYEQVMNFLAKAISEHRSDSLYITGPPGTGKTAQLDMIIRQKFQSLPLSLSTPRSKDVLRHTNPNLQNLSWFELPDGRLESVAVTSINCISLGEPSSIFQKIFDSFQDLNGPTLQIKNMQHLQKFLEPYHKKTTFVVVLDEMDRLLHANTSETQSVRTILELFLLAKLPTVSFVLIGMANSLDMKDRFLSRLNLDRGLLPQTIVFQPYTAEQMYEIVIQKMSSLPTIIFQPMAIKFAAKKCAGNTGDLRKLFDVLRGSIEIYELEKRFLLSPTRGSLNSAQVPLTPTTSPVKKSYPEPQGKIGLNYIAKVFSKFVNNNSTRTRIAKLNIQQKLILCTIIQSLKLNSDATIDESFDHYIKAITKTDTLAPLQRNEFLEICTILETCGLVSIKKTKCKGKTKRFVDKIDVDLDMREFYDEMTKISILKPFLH
Sequence of UniProt P54791 (whole entry, looked up): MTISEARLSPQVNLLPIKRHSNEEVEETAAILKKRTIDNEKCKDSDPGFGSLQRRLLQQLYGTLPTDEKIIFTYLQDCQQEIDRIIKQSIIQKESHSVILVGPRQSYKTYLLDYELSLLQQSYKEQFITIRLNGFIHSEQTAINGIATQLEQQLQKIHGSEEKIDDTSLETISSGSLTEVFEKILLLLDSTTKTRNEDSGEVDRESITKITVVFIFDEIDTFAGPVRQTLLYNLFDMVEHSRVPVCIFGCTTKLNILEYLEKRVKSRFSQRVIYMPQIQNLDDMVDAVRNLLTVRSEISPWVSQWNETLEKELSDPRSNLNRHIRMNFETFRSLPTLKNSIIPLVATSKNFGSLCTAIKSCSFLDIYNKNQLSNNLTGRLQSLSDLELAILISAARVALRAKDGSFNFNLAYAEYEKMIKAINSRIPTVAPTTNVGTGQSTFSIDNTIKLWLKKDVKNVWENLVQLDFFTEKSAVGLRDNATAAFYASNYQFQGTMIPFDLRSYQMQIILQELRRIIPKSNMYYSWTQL
Sequence of UniProt Q5EE38 (whole entry, looked up): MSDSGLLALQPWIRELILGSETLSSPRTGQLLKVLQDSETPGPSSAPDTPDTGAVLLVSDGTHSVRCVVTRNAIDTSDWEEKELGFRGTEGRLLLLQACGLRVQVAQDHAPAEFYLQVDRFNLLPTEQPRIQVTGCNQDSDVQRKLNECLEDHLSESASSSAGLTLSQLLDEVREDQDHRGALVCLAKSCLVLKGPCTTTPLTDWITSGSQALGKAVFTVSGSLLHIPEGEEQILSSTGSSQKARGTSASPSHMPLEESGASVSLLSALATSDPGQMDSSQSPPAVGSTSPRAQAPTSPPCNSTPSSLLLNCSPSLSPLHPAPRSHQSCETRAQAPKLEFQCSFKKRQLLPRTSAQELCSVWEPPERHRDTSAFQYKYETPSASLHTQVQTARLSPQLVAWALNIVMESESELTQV
Sequence of UniProt Q2MHE4 (whole entry, looked up): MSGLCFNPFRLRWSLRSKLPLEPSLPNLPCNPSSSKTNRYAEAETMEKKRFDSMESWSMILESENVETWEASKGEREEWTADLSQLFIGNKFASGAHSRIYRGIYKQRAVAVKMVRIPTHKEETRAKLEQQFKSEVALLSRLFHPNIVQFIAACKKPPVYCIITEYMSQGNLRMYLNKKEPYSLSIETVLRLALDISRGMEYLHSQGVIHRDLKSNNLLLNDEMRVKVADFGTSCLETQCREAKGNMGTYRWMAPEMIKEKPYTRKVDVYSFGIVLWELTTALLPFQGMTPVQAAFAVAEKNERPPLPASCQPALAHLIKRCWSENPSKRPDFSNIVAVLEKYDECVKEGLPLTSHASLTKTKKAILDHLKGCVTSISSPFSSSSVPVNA
Sequence of UniProt Q8BGV3 (whole entry, looked up): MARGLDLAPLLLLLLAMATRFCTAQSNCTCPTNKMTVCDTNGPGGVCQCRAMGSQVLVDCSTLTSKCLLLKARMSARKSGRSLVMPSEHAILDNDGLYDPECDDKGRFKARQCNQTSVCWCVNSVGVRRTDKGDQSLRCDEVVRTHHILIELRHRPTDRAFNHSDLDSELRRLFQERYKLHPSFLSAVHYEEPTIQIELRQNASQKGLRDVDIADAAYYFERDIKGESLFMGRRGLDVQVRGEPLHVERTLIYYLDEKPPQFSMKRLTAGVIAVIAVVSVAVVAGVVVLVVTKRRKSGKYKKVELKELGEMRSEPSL

`FGA (Homo sapiens, UniProt P02671)`: cross-linked residues “K100 to K59” (CGRRF1 (Homo sapiens, UniProt Q99675); cross-linking MS; added: DSSO).
`EGQAPQRRQDDEGLGSQRPQME (XRCC6 537-554 K537Q/K540Q/K551Q/K554Q (Canis lupus familiaris))`: binding “binds” (KPNA2/KPNB1 (Homo sapiens); pull-down).
Under cross-linked residues, `ALB (Homo sapiens, UniProt P02768)` is recorded as “K219 to K452” (PDE7A (Homo sapiens, UniProt Q13946); cross-linking MS; added: DSSO).
`GCVRLHESCLGQQVPCCDPAATCYCYGRGDNDLRCYCR (designed binder)` gave an IC50 of 0.023 ± 0.006 µM (ITGAV/ITGB3 U87MG cells (Homo sapiens); competition, flow cytometry; designed binder, U87MG).
Under binding, `B1 (NUP62 301-522)` is recorded as “binds” (FUS (Homo sapiens, UniProt P35637); pull-down).
Under Kd, `sacituzumab` is recorded as “no binding” (Tumor-associated calcium signal transducer 2 (Tacstd2, Mus musculus, UniProt Q8BGV3); binding, bio-layer interferometry).
For `PMESGICTIV`, the binding intensity was 0.062 (human MAGI1-3/6 PDZ construct (MBP fusion); automated holdup; peptide, purified PDZ protein; concentration not given, unit not given; relative to: biotin control resin, higher = stronger binding).
With `B2 (Pot1 L261S)` the relative affinity was 2 fold (Acd (Mus musculus, UniProt Q5EE38); co-IP; relative to: wild-type POT1a, higher = stronger binding).
Under interaction screen, `CDC6 (Saccharomyces cerevisiae, UniProt P09119)` is recorded as “cross-linked” (ORC4 (Saccharomyces cerevisiae, UniProt P54791); cross-linking MS; hits only).
`Itpr1 domain 3` — result for “pull-down relative to parent peptide”: under 50% (BCL2L2 BH4 11-28 R11A, stapled, i+4; pull-down; alanine scan; relative to: parent peptide, higher = more binding).
`B3 (MPK12)`: “subunits per oligomer” 1 (HT1 (Arabidopsis thaliana, UniProt Q2MHE4); SEC).
With `GSGAGRETEV` the binding intensity was 0.172 (human MAGI1-3/6 PDZ construct (MBP fusion); automated holdup; peptide, purified PDZ protein; concentration not given, unit not given; relative to: biotin control resin, higher = stronger binding).
`DYNLRB1/DYNLL1/DYNLT1/DYNC1LI2/DYNC1I2/DYNC1H1 dynein-1 complex (Homo sapiens)` gave a Ka of under 1.6e+06 M⁻¹ (HOOK3/BICD2 chimera Hook3 CC, BicD2 LIC-BD 1-160, HaloTag; pull-down).
`RECQL5 (Homo sapiens, UniProt O94762)` — result for cross-linked residues: “K939 to K280” (SMC3 (Homo sapiens, UniProt Q9UQE7); cross-linking MS; added: DSSO).

Repeated from above:
Under binding, `B1 (NUP62 301-522)` is recorded as “binds” (FUS (Homo sapiens, UniProt P35637); pull-down).
Under Kd, `sacituzumab` is recorded as “no binding” (Tumor-associated calcium signal transducer 2 (Tacstd2, Mus musculus, UniProt Q8BGV3); binding, bio-layer interferometry).
